Assay results of several laboratories.
Parts stem from different laboratories: compare values within a part only. Values joined by “and” are separate records of one study, mostly repeats; a detail may differ.
Chain of UniProt P10721 (whole entry, unmodified, looked up): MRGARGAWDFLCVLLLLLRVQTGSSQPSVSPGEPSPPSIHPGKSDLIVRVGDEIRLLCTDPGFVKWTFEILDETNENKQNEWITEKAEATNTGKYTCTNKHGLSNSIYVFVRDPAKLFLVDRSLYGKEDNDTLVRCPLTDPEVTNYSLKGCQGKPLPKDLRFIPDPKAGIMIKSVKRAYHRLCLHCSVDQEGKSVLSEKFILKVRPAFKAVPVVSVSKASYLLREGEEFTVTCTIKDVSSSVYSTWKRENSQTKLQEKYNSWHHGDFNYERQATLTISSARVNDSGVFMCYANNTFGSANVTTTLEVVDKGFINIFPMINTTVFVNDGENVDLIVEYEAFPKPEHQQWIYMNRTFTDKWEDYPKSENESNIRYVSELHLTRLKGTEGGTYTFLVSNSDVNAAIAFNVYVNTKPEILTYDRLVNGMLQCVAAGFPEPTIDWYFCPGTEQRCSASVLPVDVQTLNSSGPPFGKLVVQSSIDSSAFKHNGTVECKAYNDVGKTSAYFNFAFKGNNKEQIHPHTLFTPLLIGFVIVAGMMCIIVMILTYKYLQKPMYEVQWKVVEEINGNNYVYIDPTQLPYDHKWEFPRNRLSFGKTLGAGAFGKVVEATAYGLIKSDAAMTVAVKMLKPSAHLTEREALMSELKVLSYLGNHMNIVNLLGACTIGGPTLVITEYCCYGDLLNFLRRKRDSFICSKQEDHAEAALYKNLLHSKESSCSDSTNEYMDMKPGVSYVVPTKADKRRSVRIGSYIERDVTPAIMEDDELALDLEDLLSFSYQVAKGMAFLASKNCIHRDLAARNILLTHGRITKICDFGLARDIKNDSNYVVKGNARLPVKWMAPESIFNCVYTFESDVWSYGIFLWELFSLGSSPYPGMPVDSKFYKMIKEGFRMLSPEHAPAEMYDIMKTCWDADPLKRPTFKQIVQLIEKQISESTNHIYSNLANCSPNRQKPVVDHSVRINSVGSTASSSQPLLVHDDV
Chain of UniProt P68400 (whole entry, looked up): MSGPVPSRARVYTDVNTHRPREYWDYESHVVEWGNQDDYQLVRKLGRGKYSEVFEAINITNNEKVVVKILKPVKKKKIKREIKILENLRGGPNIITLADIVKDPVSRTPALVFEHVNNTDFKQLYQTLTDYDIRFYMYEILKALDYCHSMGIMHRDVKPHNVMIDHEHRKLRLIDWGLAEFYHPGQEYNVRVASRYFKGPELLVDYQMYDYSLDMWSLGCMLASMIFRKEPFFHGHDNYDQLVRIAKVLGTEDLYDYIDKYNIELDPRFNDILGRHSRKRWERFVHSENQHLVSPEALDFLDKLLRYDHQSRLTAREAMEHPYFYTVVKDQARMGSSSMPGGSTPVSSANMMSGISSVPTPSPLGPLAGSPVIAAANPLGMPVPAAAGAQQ
Chain of UniProt Q9UQB9 (whole entry, looked up): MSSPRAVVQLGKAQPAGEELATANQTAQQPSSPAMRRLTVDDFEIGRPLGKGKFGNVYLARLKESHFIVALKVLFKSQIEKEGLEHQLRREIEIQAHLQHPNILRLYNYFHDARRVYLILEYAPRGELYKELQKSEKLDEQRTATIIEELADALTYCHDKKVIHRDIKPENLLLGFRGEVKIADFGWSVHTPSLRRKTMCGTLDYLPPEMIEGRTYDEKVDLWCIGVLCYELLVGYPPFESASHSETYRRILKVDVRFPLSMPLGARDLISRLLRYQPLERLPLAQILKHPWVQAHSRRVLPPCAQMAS
Chain of UniProt P41743 (whole entry, looked up): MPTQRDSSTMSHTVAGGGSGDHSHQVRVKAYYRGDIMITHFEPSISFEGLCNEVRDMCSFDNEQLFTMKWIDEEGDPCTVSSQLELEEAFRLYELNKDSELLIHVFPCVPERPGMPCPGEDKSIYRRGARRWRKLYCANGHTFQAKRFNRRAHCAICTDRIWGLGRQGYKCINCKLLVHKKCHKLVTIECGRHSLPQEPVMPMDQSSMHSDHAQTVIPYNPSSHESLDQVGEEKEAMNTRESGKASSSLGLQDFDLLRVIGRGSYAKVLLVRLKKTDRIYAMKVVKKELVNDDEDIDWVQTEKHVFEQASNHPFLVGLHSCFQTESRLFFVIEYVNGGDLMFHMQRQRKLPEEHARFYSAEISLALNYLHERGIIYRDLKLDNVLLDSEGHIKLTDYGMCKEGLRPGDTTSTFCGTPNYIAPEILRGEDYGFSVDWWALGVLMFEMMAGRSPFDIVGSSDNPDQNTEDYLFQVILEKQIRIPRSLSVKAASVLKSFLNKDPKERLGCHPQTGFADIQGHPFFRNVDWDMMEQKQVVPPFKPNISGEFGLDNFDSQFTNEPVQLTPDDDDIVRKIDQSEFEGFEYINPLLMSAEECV

Series 1 — observed: enzyme activity; mode: inhibitor; concentration: 0.5 µM; relative to: control
Compound: Cc1nc(Nc2ncc(C(=O)Nc3c(C)cccc3Cl)s2)cc(N2CCN(CCO)CC2)n1
| target | remaining activity [%] |
| --- | --- |
| PRKG1 (Homo sapiens, UniProt Q13976) | 84.6 |
| KIT (Homo sapiens, UniProt P10721) | 3.27 |
| IRAK4 (Homo sapiens, UniProt Q9NWZ3) | 88.5 |
| MAPK12 (Homo sapiens, UniProt P53778) | 99.9 |
| PLK2 (Homo sapiens, UniProt Q9NYY3) | 98 |
| MAPK13 (Homo sapiens, UniProt O15264) | 99.3 |
| MKNK2 (Homo sapiens, UniProt Q9HBH9) | 100 |
| AKT3 (Homo sapiens, UniProt Q9Y243) | 89.9 |
| CSNK2A1 (Homo sapiens, UniProt P68400) | 105 |
| NEK4 (Homo sapiens, UniProt P51957) | 90.7 |
| MAP3K10 (Homo sapiens, UniProt Q02779) | 93.7 |
| EPHA5 (Homo sapiens, UniProt P54756) | 0.244 |
| Cyclin-dependent kinase 9, with cyclin T1 (CDK9, Homo sapiens, UniProt P50750) | 84.1 |
| CHEK1 (Homo sapiens, UniProt O14757) | 96 |
| PRKCD (Homo sapiens, UniProt Q05655) | 99.6 |
| MAP4K2 (Homo sapiens, UniProt Q12851) | 79.4 |
| MAP2K6 (Homo sapiens, UniProt P52564) | 95.2 |
| PRKCI (Homo sapiens, UniProt P41743) | 101 |
| LRRK2 (Homo sapiens, UniProt Q5S007) | 99.4 |
| CSNK1A1 (Homo sapiens, UniProt P48729) | 98.2 |
| LYN (Homo sapiens, UniProt P07948) | 0.427 |
| STK38 (Homo sapiens, UniProt Q15208) | 101 |
| WNK2 (Homo sapiens, UniProt Q9Y3S1) | 83.9 |

Series 2 — observed: enzyme activity; concentration: 1 µM
Compound: C=CC(=O)N1CCC([C@@H]2CCNc3c(C(N)=O)c(-c4ccc(Oc5ccccc5)cc4)nn32)CC1
| target | assay | inhibition [%] |
| --- | --- | --- |
| STK32B (Homo sapiens, UniProt Q9NY57) |  | 13 |
| ERBB2 (Homo sapiens, UniProt P04626) | inhibitor | 95 |
| CSNK2A1 (Homo sapiens, UniProt P68400) | inhibitor | 19 |
| GRK2 (Homo sapiens, UniProt P25098) | inhibitor | 0 |
| Aurora kinase C (AURKC, Homo sapiens, UniProt Q9UQB9) | inhibitor | 28 |
| MAPK4 (Homo sapiens, UniProt P31152) | inhibitor | 1 |
| PTK2 (Homo sapiens, UniProt Q05397) | inhibitor | 11 |
| Tyrosine-protein kinase ABL1, phosphorylated (ABL1, Homo sapiens, UniProt P00519, T315I) | inhibitor | 0 |
| MELK (Homo sapiens, UniProt Q14680) | inhibitor | 19 |

Series 3 — observed: cell-free assay; method: competition with immobilised ligand; concentration: 1 µM
SMILES: CNCc1ccccc1-c1csc([C@H](C)Nc2nc(C)nc3cc(OC)c(OC)cc23)c1
| target | remaining binding [%] |
| --- | --- |
| Ribosomal protein S6 kinase alpha-3, N-terminal kinase domain (RPS6KA3, Homo sapiens, UniProt P51812) | 100 |
| CAMK2B (Homo sapiens, UniProt Q13554) | 100 |
| PLK4 (Homo sapiens, UniProt O00444) | 76 |
| FLT3 (Homo sapiens, UniProt P36888, D835V) | 88 |
| Tyrosine-protein kinase ABL1, phosphorylated (ABL1, Homo sapiens, UniProt P00519, H396P) | 95 |
| Ribosomal protein S6 kinase alpha-6, N-terminal kinase domain (RPS6KA6, Homo sapiens, UniProt Q9UK32) | 100 |
| EGFR (Homo sapiens, UniProt P00533, del746-750) | 89 |
| KIT (Homo sapiens, UniProt P10721, V559D/V654A) | 100 |
| Tyrosine-protein kinase ABL1, non-phosphorylated (ABL1, Homo sapiens, UniProt P00519, T315I) | 95 |
| PTK6 (Homo sapiens, UniProt Q13882) | 100 |
| EGFR (Homo sapiens, UniProt P00533, A750P/del747-749) | 98 |
| MYLK3 (Homo sapiens, UniProt Q32MK0) | 100 |
| PKN2 (Homo sapiens, UniProt Q16513) | 90 |
| Non-receptor tyrosine-protein kinase TYK2, JH1 (TYK2, Homo sapiens, UniProt P29597) | 100 |
| CDK18 (Homo sapiens, UniProt Q07002) | 100 |
| ULK3 (Homo sapiens, UniProt Q6PHR2) | 88 |
| EPHA8 (Homo sapiens, UniProt P29322) | 100 |

Series 4 — observed: enzyme activity; mode: inhibitor; concentration: 77 µM; relative to: untreated
Target: DNA polymerase theta, ATPase domain (POLQ, Homo sapiens, UniProt O75417)
Chain of UniProt O75417 (whole entry, unmodified, looked up): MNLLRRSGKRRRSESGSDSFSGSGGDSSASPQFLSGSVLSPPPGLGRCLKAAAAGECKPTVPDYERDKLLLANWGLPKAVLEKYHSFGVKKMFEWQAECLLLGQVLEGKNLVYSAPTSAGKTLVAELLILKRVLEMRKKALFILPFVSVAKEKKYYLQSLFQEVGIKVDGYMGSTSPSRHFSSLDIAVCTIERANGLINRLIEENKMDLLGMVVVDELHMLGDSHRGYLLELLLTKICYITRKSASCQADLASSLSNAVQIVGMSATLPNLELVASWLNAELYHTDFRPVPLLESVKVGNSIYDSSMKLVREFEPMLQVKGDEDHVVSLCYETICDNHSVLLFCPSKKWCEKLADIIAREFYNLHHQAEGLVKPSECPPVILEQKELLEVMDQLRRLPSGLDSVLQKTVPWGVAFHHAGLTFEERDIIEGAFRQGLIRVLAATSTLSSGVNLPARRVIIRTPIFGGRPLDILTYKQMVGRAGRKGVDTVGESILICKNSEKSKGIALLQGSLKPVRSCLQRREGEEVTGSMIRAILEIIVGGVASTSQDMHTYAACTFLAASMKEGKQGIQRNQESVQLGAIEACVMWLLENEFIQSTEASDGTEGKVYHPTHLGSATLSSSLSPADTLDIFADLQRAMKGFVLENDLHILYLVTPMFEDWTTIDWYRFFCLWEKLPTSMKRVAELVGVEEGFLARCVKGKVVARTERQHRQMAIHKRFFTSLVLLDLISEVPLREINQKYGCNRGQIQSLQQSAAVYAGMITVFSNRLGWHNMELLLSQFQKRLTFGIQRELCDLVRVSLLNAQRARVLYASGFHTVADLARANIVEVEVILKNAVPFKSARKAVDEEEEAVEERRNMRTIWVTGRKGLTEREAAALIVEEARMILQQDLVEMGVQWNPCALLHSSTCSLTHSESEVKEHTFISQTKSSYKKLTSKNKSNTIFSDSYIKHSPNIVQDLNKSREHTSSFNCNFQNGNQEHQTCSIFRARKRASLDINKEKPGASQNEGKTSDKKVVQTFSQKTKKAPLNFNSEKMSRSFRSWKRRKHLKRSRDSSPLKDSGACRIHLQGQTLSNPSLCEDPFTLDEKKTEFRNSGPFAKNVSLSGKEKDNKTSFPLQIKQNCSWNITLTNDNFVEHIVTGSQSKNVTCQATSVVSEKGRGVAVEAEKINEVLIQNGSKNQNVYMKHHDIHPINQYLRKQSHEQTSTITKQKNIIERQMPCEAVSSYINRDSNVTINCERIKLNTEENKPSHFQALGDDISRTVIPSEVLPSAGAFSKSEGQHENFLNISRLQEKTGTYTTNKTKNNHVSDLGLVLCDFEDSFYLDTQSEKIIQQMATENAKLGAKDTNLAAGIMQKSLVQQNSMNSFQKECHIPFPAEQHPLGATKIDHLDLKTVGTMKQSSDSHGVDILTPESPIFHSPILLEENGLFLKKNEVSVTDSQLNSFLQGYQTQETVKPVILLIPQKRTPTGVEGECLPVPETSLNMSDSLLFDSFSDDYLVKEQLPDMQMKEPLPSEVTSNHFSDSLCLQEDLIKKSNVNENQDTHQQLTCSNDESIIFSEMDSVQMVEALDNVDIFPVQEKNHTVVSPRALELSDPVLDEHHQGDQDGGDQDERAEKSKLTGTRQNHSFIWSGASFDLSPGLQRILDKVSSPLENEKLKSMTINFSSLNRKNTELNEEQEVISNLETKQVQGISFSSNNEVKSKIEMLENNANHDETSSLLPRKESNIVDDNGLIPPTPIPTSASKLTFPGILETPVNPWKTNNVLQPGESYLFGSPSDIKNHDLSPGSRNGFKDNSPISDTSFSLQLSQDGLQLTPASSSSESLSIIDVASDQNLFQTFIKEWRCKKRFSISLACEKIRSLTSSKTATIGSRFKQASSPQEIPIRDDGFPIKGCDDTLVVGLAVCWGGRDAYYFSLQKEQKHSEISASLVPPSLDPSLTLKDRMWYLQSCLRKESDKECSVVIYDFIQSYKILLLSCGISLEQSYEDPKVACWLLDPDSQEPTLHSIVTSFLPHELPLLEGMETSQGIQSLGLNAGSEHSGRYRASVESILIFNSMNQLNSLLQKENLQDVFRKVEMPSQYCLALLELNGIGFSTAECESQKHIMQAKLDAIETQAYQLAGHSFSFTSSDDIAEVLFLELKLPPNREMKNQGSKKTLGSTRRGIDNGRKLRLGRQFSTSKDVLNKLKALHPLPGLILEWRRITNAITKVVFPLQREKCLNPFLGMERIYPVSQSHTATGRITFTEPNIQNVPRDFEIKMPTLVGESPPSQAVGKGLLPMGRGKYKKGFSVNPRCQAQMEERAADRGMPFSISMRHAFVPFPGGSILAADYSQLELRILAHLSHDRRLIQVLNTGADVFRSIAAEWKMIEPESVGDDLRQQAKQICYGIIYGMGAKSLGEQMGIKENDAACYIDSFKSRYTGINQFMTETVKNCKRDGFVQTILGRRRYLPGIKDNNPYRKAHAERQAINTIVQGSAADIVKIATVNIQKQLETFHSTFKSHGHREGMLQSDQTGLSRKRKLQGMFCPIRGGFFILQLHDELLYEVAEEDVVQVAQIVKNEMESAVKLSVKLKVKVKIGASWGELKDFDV
| Compound | remaining activity |
| --- | --- |
| NCCCCCNCC12CC3CC(CC(C3)C1)C2 | 99.5% |
| CN1CCC(OC(c2ccccc2)c2ccccc2)CC1 | 101% |
| CC1(C)O[C@@H]2C[C@H]3[C@@H]4C[C@H](F)C5=CC(=O)C=C[C@]5(C)[C@H]4[C@@H](O)C[C@]3(C)[C@]2(C(=O)CO)O1 | 93.9% |
| CC(=O)SCC(Cc1ccccc1)C(=O)NCC(=O)OCc1ccccc1 (stereo not shown) | 98.8% and 100% |
| C#CCN[C@@H]1CCc2ccccc21 | 103% |
| CC(C)C(=O)Oc1ccc(CO)cc1[C@H](CCN(C(C)C)C(C)C)c1ccccc1 | 103% |
| CSc1ccc(C(=O)c2[nH]c(=O)[nH]c2C)cc1 | 98.8% |
| NCCCC[C@H](N[C@@H](CCc1ccccc1)C(=O)O)C(=O)N1CCC[C@H]1C(=O)O | 98.3% |
| O=C(NC[C@H]1CN(c2ccc(N3CCOCC3=O)cc2)C(=O)O1)c1ccc(Cl)s1 | 103% |

A few entries again (series 2):
| target | assay | inhibition [%] |
| --- | --- | --- |
| STK32B (Homo sapiens, UniProt Q9NY57) |  | 13 |
| ERBB2 (Homo sapiens, UniProt P04626) | inhibitor | 95 |
| CSNK2A1 (Homo sapiens, UniProt P68400) | inhibitor | 19 |
| GRK2 (Homo sapiens, UniProt P25098) | inhibitor | 0 |
| Aurora kinase C (AURKC, Homo sapiens, UniProt Q9UQB9) | inhibitor | 28 |
| MAPK4 (Homo sapiens, UniProt P31152) | inhibitor | 1 |
| PTK2 (Homo sapiens, UniProt Q05397) | inhibitor | 11 |
| Tyrosine-protein kinase ABL1, phosphorylated (ABL1, Homo sapiens, UniProt P00519, T315I) | inhibitor | 0 |
| MELK (Homo sapiens, UniProt Q14680) | inhibitor | 19 |
